Assay results of several laboratories.
± marks the error that the study gave.

`melittin` has a partitioning enthalpy of -4.7 kcal/mol (isothermal titration calorimetry; POPC/POPG LUVs 90:10%; 100 µM, pH 7.0, 40 °C).
For N=C(N)NCCC[C@@H]1NC(=O)[C@H](CCCCNC(=O)CNC(=O)CNC(=O)CNC(=O)CC[C@H](NC(=O)CCOCCOCCOCCOCCNC(=O)c2ccc(NN)nc2)C(=O)NCC(=O)NCC(=O)NCC(=O)NCCCC[C@@H]2NC(=O)[C@@H](Cc3ccccc3)NC(=O)[C@H](CC(=O)O)NC(=O)CNC(=O)[C@H](CCCNC(=N)N)NC2=O)NC(=O)[C@@H](Cc2ccccc2)NC(=O)[C@H](CC(=O)O)NC(=O)CNC1=O [technetium-99m labelled], the tissue uptake was 2.22 ± 0.3 %ID/g (γ-counting; female athymic nude mice, U-87 MG xenograft, liver; intravenous, 2 h).
CSCC[C@H](NC(=O)[C@H](CC(C)C)NC(=O)[C@H](Cc1c[nH]cn1)NC(=O)CNC(=O)[C@@H](NC(=O)[C@H](C)NC(=O)[C@H](Cc1c[nH]c2ccccc12)NC(=O)[C@H](CCC(N)=O)NC(=O)CCC(=O)NCCOCCNC(=O)CN1CCN(CC(=O)O)CCN(CC(=O)O)CCN(CC(=O)O)CC1)C(C)C)C(N)=O gave an excretion of 83.6 ± 2.83% (CF-1 mouse, urine and bladder; intravenous, 185 kBq, 1 h).
COc1cccc2c1C(=O)c1c(O)c3c(c(O)c1C2=O)C[C@@](O)(C(=O)CO)C[C@@H]3O[C@H]1C[C@H](NC(=O)[C@@H]2CCCN2C(=O)CNC(=O)[C@H](CC(C)C)NC(=O)[C@H](C)NC(=O)CP(=O)(O)O)[C@H](O)[C@H](C)O1 gave a Cmax of 19 µM (mouse, E0771 tumour-bearing, heart; intravenous, 92 µmol/kg).
The tissue uptake of CCN1C(=CC=CC=CC2=[N+](CCCCCC(=O)NCCCC[C@H](NC(=O)CN3CCN(CC(=O)O)CCN(CC(=O)O)CCN(CC(=O)O)CC3)C(=O)NCC(=O)NCC(=O)N[C@@H](Cc3ccc(O)cc3)C(=O)NCC(=O)N[C@H]3CSSC[C@@H]4NC(=O)CNC(=O)[C@H](C)NC(=O)[C@H](CC(C)C)NC(=O)[C@@H]5CSSC[C@@H](C(=O)NCC(N)=O)NC(=O)[C@H](Cc6ccccc6)NC(=O)CNC(=O)[C@H](CC(N)=O)NC(=O)[C@@H]6CCCN6C(=O)CNC(=O)[C@H](CSSC[C@H](NC(=O)[C@H](CO)NC(=O)[C@H]([C@@H](C)O)NC(=O)[C@@H]6CCCN6C(=O)[C@H](C)NC(=O)[C@H](Cc6c[nH]c7ccccc67)NC(=O)[C@H](CC(=O)O)NC(=O)CNC(=O)[C@H](CCCNC(=N)N)NC(=O)CNC(=O)[C@H](CCC(N)=O)NC(=O)[C@@H]6CCCN6C3=O)C(=O)N[C@@H](CO)C(=O)N[C@@H](CCC(N)=O)C(=O)N[C@@H](CC(=O)O)C(=O)N[C@@H](CO)C(=O)N[C@@H](CC(=O)O)C(=O)N5)NC(=O)[C@H](C(C)C)NC4=O)c3ccc4c(S(=O)(=O)[O-])cc(S(=O)(=O)O)cc4c3C2(C)C)C(C)(C)c2c1ccc1c(S(=O)(=O)O)cc(S(=O)(=O)O)cc21 (single isomer, unassigned) [copper-64 labelled] is reported as 3.24 ± 0.87 %ID/g (nude mouse, U-87 MG xenograft, tumour; intravenous, 100 µCi, 0.5 nmol, 1 h).
Under stability, CCCCCCCCCCCCCCCC(=O)N[C@H](C(=O)N[C@H](C(=O)N[C@@H](CSSCCOP(=O)(O)CO[C@H](C)Cn1cnc2c(N)ncnc21)C(=O)N[C@@H](CCC(=O)O)C(=O)O)C(C)C)C(C)C is recorded as “stable” (PBS; 100 µM, 3 days, 37 °C, without dithiothreitol).
N=C(N)NCCC[C@@H]1NC(=O)[C@H](CCCCNC(=O)[C@H](CC(=O)O)NC(=O)[C@H](CC(=O)O)NC(=O)[C@H](CC(=O)O)NC(=O)CC[C@H](NC(=O)CCOCCOCCOCCOCCNC(=O)c2ccc(NN)nc2)C(=O)N[C@@H](CC(=O)O)C(=O)N[C@@H](CC(=O)O)C(=O)N[C@@H](CC(=O)O)C(=O)NCCCC[C@@H]2NC(=O)[C@@H](Cc3ccccc3)NC(=O)[C@H](CC(=O)O)NC(=O)CNC(=O)[C@H](CCCNC(=N)N)NC2=O)NC(=O)[C@@H](Cc2ccccc2)NC(=O)[C@H](CC(=O)O)NC(=O)CNC1=O [technetium-99m labelled] has a tissue uptake of 3.61 ± 0.14 %ID/g (γ-counting; female athymic nude mice, U-87 MG xenograft, liver; intravenous, 1 h).
The Cmax of COc1cccc2c1C(=O)c1c(O)c3c(c(O)c1C2=O)C[C@@](O)(C(=O)CO)C[C@@H]3O[C@H]1C[C@H](NC(=O)[C@H](CC(C)C)NC(=O)[C@H](C)NC(=O)[C@H](CC(C)C)NC(=O)CCNC(=O)CCC(=O)O)[C@H](O)[C@H](C)O1 is reported as 49 µM (mouse, E0771 tumour-bearing, liver; intravenous, 92 µmol/kg).

For quick reference, copied from above:
The Cmax of COc1cccc2c1C(=O)c1c(O)c3c(c(O)c1C2=O)C[C@@](O)(C(=O)CO)C[C@@H]3O[C@H]1C[C@H](NC(=O)[C@H](CC(C)C)NC(=O)[C@H](C)NC(=O)[C@H](CC(C)C)NC(=O)CCNC(=O)CCC(=O)O)[C@H](O)[C@H](C)O1 is reported as 49 µM (mouse, E0771 tumour-bearing, liver; intravenous, 92 µmol/kg).
